# Assay results collected from several papers.
# Numbered parts are unrelated; each lists some results of a single study. Positions count from the first letter of the parent shown.

# Series 1
# Target: CCNB2, cyclin fold, Cln2 fusion (human)
# Method: yeast growth competition, sequencing
# Sample: yeast
# Notes: weak parent motif
# Relative to: not given
# Direction: higher = stronger binding
# Parent: EXO1 docking peptide (human); KPECGRVQRAIFQ
Change,normalised enrichment score
KPECGRVQRAIFA [Q13A],0.126
KPECGRVQAAIFQ [R9A],0.127
KPECGRVQRAAFQ [I11A],0.18
KPECARVQRAIFQ [G5A],-0.00691
KPECGRVQRAIAQ [F12A],0.149
KPEAGRVQRAIFQ [C4A],-0.0766

# Series 2
# Target: Prothrombin, mature alpha-thrombin (F2, Homo sapiens, UniProt P00734)
# Method: aptamer microarray, sandwich
# Form: DNA with 2'F-ANA
# Sample: in vitro
# Tested at: 200 nM
# Notes: whole 15-mer aptamer, many near background
# With: Cy3 exosite-II aptamer, 400 nM
# Direction: higher = stronger binding
# Sequence: GGTTGGTGTGGTTGG
Modification,mean fluorescence intensity
2'F-ANA at 2 3 6 7 8 10 11 12 13 14 15,252 a.u.
2'F-ANA at 2 6 7 10 13 14,85 a.u.
2'F-ANA at 1 2 3 5 6 8 11 12 13 14 15,53.3 a.u.
2'F-ANA at 1 2 3 4 5 10 15,50.3 a.u.
2'F-ANA at 4 5 6 7 8 10 12,49.8 a.u.
2'F-ANA at 1 3 4 7 10 11 14 15,50.5 a.u.
2'F-ANA at 1 5 9 10 11,87.7 a.u.
2'F-ANA at 1 3 7 9 10 13 14,123 a.u.

# Series 3
# Target: ABI1, truncated, D143A, DHFR fusion (Arabidopsis thaliana)
# Method: DHFR PCA, deep sequencing
# Sample: yeast
# Notes: methotrexate growth selection, single substitutions
# With: (+)-ABA 4.8 µM
# Relative to: wild-type fitted maximum
# Direction: higher = stronger binding
# Parent: PYL1, truncated, DHFR fusion (Arabidopsis thaliana); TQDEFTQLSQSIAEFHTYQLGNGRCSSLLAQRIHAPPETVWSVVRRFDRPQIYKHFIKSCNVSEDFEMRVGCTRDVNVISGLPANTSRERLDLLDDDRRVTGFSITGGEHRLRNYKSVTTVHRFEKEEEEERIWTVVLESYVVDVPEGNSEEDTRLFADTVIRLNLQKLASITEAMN
Change,relative binding score
G71K,-3.25%
T6W,64%
D159C,-3.57%
V136N,-11%
T106M,72.8%
Q2E,78.1%

# Single results of other studies
Substance,target,assay,test system,conditions,scale,endpoint,value
"PhoQ, residues 284 288 289 292 302 303 ALASRC","PhoP, residues 12 14 15 18 19 SQCLL (Escherichia coli, UniProt P23836)","Sort-seq, measured: YFP reporter",E. coli,"PhoQ-PhoP variant library, with: 10 µM Mg2+","relative to: high Mg2+ state, higher = stronger signaling",fold induction,8.26

# A few entries again (series 3):
Change,relative binding score
T106M,72.8%
Q2E,78.1%
